Published values from different studies.
A part holds a random share of what one study measured.
Chain of UniProt P49841 (whole entry, looked up): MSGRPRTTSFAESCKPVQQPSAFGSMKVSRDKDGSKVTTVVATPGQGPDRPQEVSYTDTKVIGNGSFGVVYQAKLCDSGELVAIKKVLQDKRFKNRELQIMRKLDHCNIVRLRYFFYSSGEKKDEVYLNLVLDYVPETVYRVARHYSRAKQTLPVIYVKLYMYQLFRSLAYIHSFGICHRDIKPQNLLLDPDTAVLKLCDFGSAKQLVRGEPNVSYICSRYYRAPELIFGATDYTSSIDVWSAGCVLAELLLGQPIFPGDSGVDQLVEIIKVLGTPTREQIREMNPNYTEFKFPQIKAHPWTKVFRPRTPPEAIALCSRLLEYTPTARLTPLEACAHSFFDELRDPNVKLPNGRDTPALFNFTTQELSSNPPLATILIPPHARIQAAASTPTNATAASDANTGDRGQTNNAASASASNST
Chain of UniProt O75460 (whole entry, looked up): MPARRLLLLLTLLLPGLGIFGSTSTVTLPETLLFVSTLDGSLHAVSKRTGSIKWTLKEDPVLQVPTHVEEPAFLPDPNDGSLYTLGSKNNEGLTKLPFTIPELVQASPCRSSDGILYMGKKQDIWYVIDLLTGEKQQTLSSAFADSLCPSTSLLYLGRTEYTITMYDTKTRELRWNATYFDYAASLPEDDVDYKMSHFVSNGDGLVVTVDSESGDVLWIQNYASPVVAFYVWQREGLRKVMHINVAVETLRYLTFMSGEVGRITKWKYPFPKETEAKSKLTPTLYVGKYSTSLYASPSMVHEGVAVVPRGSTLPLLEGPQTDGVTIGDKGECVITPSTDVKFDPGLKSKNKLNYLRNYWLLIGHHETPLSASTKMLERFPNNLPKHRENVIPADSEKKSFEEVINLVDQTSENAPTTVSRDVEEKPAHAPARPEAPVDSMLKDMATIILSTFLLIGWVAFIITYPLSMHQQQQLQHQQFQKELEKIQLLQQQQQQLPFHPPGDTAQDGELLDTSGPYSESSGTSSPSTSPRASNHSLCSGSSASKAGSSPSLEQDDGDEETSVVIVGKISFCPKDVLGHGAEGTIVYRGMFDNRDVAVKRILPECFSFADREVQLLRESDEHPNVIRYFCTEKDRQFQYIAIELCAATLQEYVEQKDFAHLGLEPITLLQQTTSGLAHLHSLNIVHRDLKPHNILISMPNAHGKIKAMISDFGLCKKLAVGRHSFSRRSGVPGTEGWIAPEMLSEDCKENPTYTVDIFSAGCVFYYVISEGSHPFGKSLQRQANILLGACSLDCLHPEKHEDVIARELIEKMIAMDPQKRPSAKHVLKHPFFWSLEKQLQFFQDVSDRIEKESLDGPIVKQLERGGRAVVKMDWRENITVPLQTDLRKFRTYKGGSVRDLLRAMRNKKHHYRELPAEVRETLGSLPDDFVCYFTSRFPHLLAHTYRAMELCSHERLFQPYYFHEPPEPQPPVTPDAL

Block 1
Target: RING finger protein unkempt homolog, zinc fingers 1-6, GST-SBP tag (UNK, Homo sapiens, UniProt Q9C0B0, residues 30-357)
Technique: RNA Bind-n-Seq
Form: RNA
Matrix: in vitro
Concentration: not given
Setting: RNA with constant flanks, human-mouse chimeric sites, ends assumed
Baseline: input RNA pool
Direction: higher = stronger binding
Constant ends, left off below: GGGAGUUCUACAGUCCGACGAUC … CAACAGAGGAUUGAGCAUCA
Construct (chain): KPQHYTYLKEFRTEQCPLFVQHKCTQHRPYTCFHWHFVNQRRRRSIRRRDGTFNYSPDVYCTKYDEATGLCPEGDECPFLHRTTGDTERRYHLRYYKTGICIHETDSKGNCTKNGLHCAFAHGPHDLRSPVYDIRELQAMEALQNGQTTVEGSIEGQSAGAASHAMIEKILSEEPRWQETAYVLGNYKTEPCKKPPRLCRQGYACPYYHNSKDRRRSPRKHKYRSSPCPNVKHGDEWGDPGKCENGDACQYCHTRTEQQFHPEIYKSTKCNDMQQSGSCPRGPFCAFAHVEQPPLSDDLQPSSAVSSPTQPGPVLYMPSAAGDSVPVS
Oligonucleotide	bound/input enrichment
UUAAUCCCCUUUACUGCUCCCCCACUUCUCAUGGUAAUAACAAAGUCUUAUAUCCCCGUCCUAGCUUUCACUCAGAUGGCUUAUGGAGCCAGUUUCCUAGCUUUCUUGGGUGGGAUCAGA	0.326 ratio
AGAGAUAAGACAUCCAGGAACAUGCGAGGGUCACGGAUGAAUGGGUUGCCUAGCCCCACUCACAGCGCCCACUGUAGCUUCUACCGAACCAGAACCUUGCAGGCAUUGAGUAAUGAGAAG	0.26 ratio
CUCAGAGAUGUGGCAUAUCAGUAUGUGAAAAAGGGGGCUCGUAUAUUUGUGGAAGGGAAAAUAGACUAUGGUGAAUACAUGGAUAAAAACAAUGUGAGGCGGCAAGCAACAACAAUCAUA	0.54 ratio
CAGACUGUGUCAUACUUUUUAGACAUUGCCAUAGGUAUUACAGAGCACCUGGCCACAUUCUAGGUUUGUGUUAUUUCUCAGCUAUGGAUAUGAUCAAAUGAGAACACUGCUUAACUAAUG	1.62 ratio
CGCUUGGAUGAGGCGGGUGUUACUGAUGAAGUGCUAGAUUCUGCCAUGCAAGCCUUCUUACUAGAAAUCAUUGUUAAACAUGGGGAGCCGGCACCUUAUUUAUGUAACAAAGAUCCGUUU	0.163 ratio
GUAGCUGGGACUACAGAAAUGCUGGUAGUGCUCCGGCCUUGCUGAUGACUUCUGAUGUCCCAGCAAAUGUUGGCAUUGUUGACUGCUCUGUGAAGACUUCUGAGGACCCACGUCUAAGGU	0.0522 ratio
GUAGCUGGGACUACAGAAGAAUGCUGAAUUUCAGUCACUUGCUGAUGACUUCUGAUGUCCCAGCAAAUGUUGGCAUUGUUGACUGCUCUGUGAAGACUUCUGAGGACCCACGUCUAAGGU	0.0789 ratio
AAAGAGAAACUAAAGCAACUAAUAGAGGAAGAGGAUUGCAAAGAGAAUUUCAUAGAGAAACUAGGAUUUAUUAGCAAACAUGAGUUAGUAUUCCAGACGUCUCAGAAACCCCAGCCAAAC	2.83 ratio

Block 2
Target: Centromere-binding protein 1, full length, N-terminal tag (CBF1, Saccharomyces cerevisiae, UniProt P17106, residues 1-351)
Chain of UniProt P17106 (whole entry, looked up): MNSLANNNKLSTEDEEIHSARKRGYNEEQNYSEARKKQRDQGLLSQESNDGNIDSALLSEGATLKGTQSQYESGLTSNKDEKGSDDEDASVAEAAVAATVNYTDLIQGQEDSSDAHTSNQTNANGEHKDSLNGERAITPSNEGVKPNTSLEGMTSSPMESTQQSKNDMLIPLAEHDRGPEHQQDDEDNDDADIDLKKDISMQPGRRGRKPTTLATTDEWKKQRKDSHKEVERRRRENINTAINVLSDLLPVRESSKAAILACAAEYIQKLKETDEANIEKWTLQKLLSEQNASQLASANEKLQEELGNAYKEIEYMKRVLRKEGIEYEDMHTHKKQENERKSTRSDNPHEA
Technique: protein-binding microarray
Form: double-stranded DNA, one strand shown
Matrix: in vitro
Concentration: 0.8 µM
Setting: whole 60-bp probe, no competitor
Direction: higher = stronger binding
Constant ends, left off below: … GTCTTGATTCGCTTGACGCTGCTG
Oligonucleotide	fluorescence intensity [a.u.]
TGTACGAAGCTATTTCTGATGACTATAGTAGTTAGG	544
CTATGCTCCACCTGCGAACACGTGGAAGTCGCATTC	3750
TGTACGAAGCTATCGCATGTGATTATAGTAGTTAGG	1390
GAAAGGGTGTATTATCACATGCAGCCTTTGTTTTAG	1120
GAAATATCGATATACATCATGATGAGAGCGCCTTAG	505
CTAAATTTAGTTGAACATGTGACGAAAGCTCTGTTC	5210
GAATATAGTTTTACTTGCGTGAGGTTAGGGATTTAG	504
GAACTTCCTCCGCATCAGCTGGGAAAGAGGCGTTAG	510

Other studies, line by line
Compound	target	test	conditions	scale	endpoint	value
CNC(=O)Nc1ccc2c(c1)[C@@]1(CC2)OC(=O)N(CC(=O)N(Cc2ccc(F)cc2)[C@@H](C)C(F)(F)F)C1=O	ERN1 (Homo sapiens, UniProt O75460)	cell-free assay, competition with immobilised ligand	1 µM		remaining binding	100%
Cc1nc(Nc2ncc(C(=O)Nc3c(C)cccc3Cl)s2)cc(N2CCN(CCO)CC2)n1	GSK3B (Homo sapiens, UniProt P49841)	enzyme activity, inhibitor	0.5 µM	baseline: control	remaining activity	97.3%

A few entries again (block 2):
Oligonucleotide	fluorescence intensity [a.u.]
TGTACGAAGCTATTTCTGATGACTATAGTAGTTAGG	544
CTATGCTCCACCTGCGAACACGTGGAAGTCGCATTC	3750
TGTACGAAGCTATCGCATGTGATTATAGTAGTTAGG	1390
